# Published values of several laboratories.
# Each line is one published result; not all experiments were run side by side. Numbers after ± are the reported error.
Structure (SMILES),cell line,assay,test system,setting,endpoint,result
CC1=C2[O][Ru-]([Cl])[O+]=C2C=CN1CCCCCCN1C=CC2=[O+][Ru-]([Cl])[O]C2=C1C.Cc1ccc(C(C)C)cc1.Cc1ccc(C(C)C)cc1,KYSE70-oxo oxoplatin-resistant,crystal violet,,96 h,IC50,> 20 µM
CCN1CCC2(CC1)C/C(=N\NC(=O)Nc1ccc(Cl)cc1)c1ccccc1O2,"MCF7, HCT-116, PC-3, A549","cell growth, MTT",,range over cell lines,IC50,21.7 to 47.7 µM
COc1cc(OC)cc(C2=C3C(C)=C(I)C(/C=C/c4c[nH]c5ccccc45)=[N+]3[B-](F)(F)n3c(/C=C/c4c[nH]c5ccccc45)c(I)c(C)c32)c1,HEp-2,"cell growth or viability, resazurin",,"24 h, dark",IC50,> 400 µM
O=c1[nH]c2ccccc2nc1/C=C/c1ccccc1Br,B16-F10,"cell growth or viability, MTT",,72 h,IC50,7.61 µM
CSc1nc(Nc2cccc(/C(C)=N/NC(=O)c3ccccc3Cl)c2)c(C#N)c(-c2ccccc2)n1,HCT-116 and MCF7,"cell growth, MTT",,range over compound group,IC50,1.14 to 10.3 µM
Cc1cc(/C=C/C#N)cc(C)c1Oc1cc(Nc2ccc(C#N)cn2)nc2ccncc12,S102,,,48 h,IC50,> 120 µM
CC1(C)c2ccccc2-c2ccc(-c3cn(-c4ccc(-c5cc(-c6ccccn6)nc(-c6ccccn6)c5)cc4)nn3)cc21,NHDF normal human fibroblasts,"cytotoxicity, MTS",,72 h,IC50,> 25 µM
COc1ccc(CN2C[C@H](O)[C@H](O)[C@@H]2CO)cc1,K562-Tax,"cell growth or viability, MTS",,72 h,IC50,110 µM
O=[N+]([O-])c1ccc(/C=N/NC(=S)Nc2ccccc2)s1,HEL human lung fibroblasts,cell growth,,,IC50,52.1 µM
CCCCCCCCC=CCCCCCCCC(=O)OCC1OC(n2ccc(N)nc2=O)C(F)(F)C1O (centres unmarked),C26-A (mouse),"cell growth, SRB",,72 h,IC50,0.0015 ± 0.0006 µM
COc1cc(OC)cc(C2=C3C(C)=C(I)C(/C=C/c4cccs4)=[N+]3[B-](F)(F)n3c(/C=C/c4cccs4)c(I)c(C)c32)c1,HEp-2,"phototoxicity, CellTiter-Blue",,with: light 1.5 J/cm^2,IC50,> 100 µM
Cc1ccc(CNC(=O)C(CCc2ccccc2)NC(=O)C(NC(=O)c2ccc(OCc3ccc(C(C)(C)C)cc3)cc2)C(C)O)cc1 (centres unmarked),WSUDLCL2,"proteasome β5 activity, inhibitor, Proteasome-Glo β5",,1 h,IC50,0.32 ± 0.12 µM
C/C1=C/C[C@H]2[C@@H]3[C@@H]([C@]4(C)CO4)CC[C@@]3(C)CC[C@]2(C)C[C@H]2[C@@H](C)CC[C@@H]12,CT26,"cell growth or viability, MTT",,72 h,IC50,60 µM
C=CC(=O)Nc1ccc(F)c(-c2ncnc3[nH]cc(C(=O)OCC)c23)c1,mouse CD4 T-cell blasts,"cell proliferation, 3H-thymidine uptake",,"24 to 48 h, with: IL-2",IC50,0.0037 µM
CC(=O)O[C@H]1CC[C@]2(C)[C@H]3CC=C4[C@@H]5[C@@H](C)[C@H](C)CC[C@]5(C)CC[C@@]4(C)[C@]3(C)CC[C@H]2C1(C)C,HDFn,"cell viability, PrestoBlue",,96 h,IC50,8.84 µg/mL
Cc1c(C)n(-c2c(C(C)C)cccc2C(C)C)c(=[Se])n1-c1c(C(C)C)cccc1C(C)C.[Cl][Au],H157 lung carcinoma cells,"cell viability, MTT",,72 h,IC50,0.4 ± 0.1 µM
CC1(C)O[C@@H]1CC[C@](C)(O)[C@H]1CC[C@]2(C)[C@@H]1CC[C@@H]1[C@@]3(C)CCC(=O)C(C)(C)[C@@H]3CC[C@]12C,SCM-1,"cytotoxicity, MTT",,,IC50,> 30 µM
CN1CCC(N[C@@H]2CCc3[nH]c4c(C(N)=O)ccc(-c5ccccc5Cl)c4c3C2)CC1,colorectal cancer organoid sample B,"cell growth, CellTiter-Glo",,6 days,IC50,0.0033 µM
CC1(C)OB(c2ccc(COC(=O)N[c-]3cccc3)cc2)OC1(C)C.[Fe+2].c1cc[cH-]c1,BL2,"cell growth or viability, MTT",,48 h,IC50,35.5 µM
COc1cccc(-c2ccc(Nc3ccc(CN(C)C)cc3)c(OC)c2F)c1,SNU-1 (KRAS G12D),"cell viability, CellTiter-Glo",,72 h,IC50,7.2 ± 1.2 µM
CCOC(=O)c1[nH]c(C)c(/C=C/c2c(I)c(C)c3n2[B-](F)(F)[N+]2=C(C)C(I)=C(C)C2=C3c2cc(OC)cc(OC)c2)c1C,HEp-2,"cell growth or viability, resazurin",,"24 h, dark",IC50,> 400 µM
CC(=O)Oc1ccc(/C=C/C(=O)Nc2nc(=O)n([C@@H]3O[C@H](C)[C@@H](OC(C)=O)[C@H]3OC(C)=O)cc2F)c(OC(C)=O)c1,ASPC1,"cell growth or viability, MTT",,72 h,IC50,81.5 µM
CSc1nc(Nc2ccc(C(=O)N/N=C/c3ccc(Cl)cc3)cc2)c(C#N)c(-c2ccccc2)n1,HCT-116 and MCF7,"cell growth, MTT",,range over compound group,IC50,9.25 to 15.3 µM
N#C/C(=C\c1cn(-c2ccccc2)nc1-c1ccc(Cl)cc1)c1nc2ccccc2[nH]1,ASPC1,"cell growth or viability, ATP luminescence",,72 h,IC50,> 100 µM
Clc1ccc(C=[N+]2N=C(Nc3ccccc3)[S][Pd-]2([Cl])[Cl])s1,HEL human lung fibroblasts,cell proliferation,,,IC50,42.8 µM
[Ru+2].c1ccc(-c2cccc(-c3ccccn3)n2)nc1.c1ccc(-c2ccccn2)nc1.c1cnccn1,HL-60,cell growth or viability,,dark,IC50,> 100 µM
COc1cc(CNC(=O)C[C@H](C)CCC=C(C)C)ccc1OCc1cn(-c2ccc(F)cc2)nn1,OVCAR-8 ovarian cancer cells,SRB,,"10 µM, 48 h",growth percent,52.3%
O=C(Nc1ccc(F)cc1)c1ccccc1-n1c(=O)[nH]c2ccccc2c1=O,B16-F10,"cell growth or viability, MTT",,24 h,IC50,25.8 µM
COc1c(O)cc2oc3cc(O)c(CCC(C)C)c(O)c3c(=O)c2c1CCC(C)C,BEAS-2B,cell growth or viability,,,IC50,14.3 µM
CC[C@H](CC[C@@H](C)[C@H]1CC[C@H]2[C@@H]3[C@@H](O)C=C4C[C@@H](O)CC[C@]4(C)[C@H]3CC[C@]12C)C(C)C,SCM-1,"cytotoxicity, MTT",,,IC50,> 30 µM
O=C(/C=C/c1cccc(S(=O)(=O)Nc2ccc(F)cc2F)c1)NO,MOPC-315,cell growth,,24 h,IC50,0.784 ± 0.198 µM
CC(C)(CCCC/C=C/CCCCCC(C)(C)C(=O)O)C(=O)O,mouse primary hepatocytes,cholesterol biosynthesis,,"4 h, with: [14C]-citrate",IC50,5.53 ± 2.49 µM
CSCC[C@H](NC(=O)[C@H](Cc1ccc(OP(=O)(O)O)cc1)NC(=O)CNC(=O)CNC(=O)[C@H](CC(=O)O)NC(=O)[C@H](CO)NC(=O)[C@H](CCC(=O)O)NC(=O)CN)C(=O)N[C@@H](CC(=O)O)C(=O)N[C@@H](CCSC)C(=O)N[C@@H](CO)C(=O)N[C@@H](CCCCN)C(=O)N[C@@H](CC(=O)O)C(=O)N[C@@H](CCC(=O)O)C(=O)N[C@@H](CO)C(=O)N[C@@H](CCCCNC(=O)CNC(=O)[C@H](CCCCN)NC(=O)[C@H](CCCNC(=N)N)NC(=O)[C@H](Cc1ccccc1)NC(=O)[C@H](CCCNC(=N)N)NC(=O)[C@H](CCCNC(=N)N)NC(=O)[C@H](CCCNC(=N)N)NC(=O)[C@H](CO)NC(=O)[C@H](Cc1ccc(O)cc1)NC(=O)[C@H](CO)NC(=O)[C@H](CC(C)C)NC(=O)[C@H](CCCNC(=N)N)NC(=O)[C@@H](N)CCCNC(=N)N)C(N)=O,HPASMC,"PDGF-induced Akt phosphorylation, inhibitor, Western blot, measured: phospho-Akt",,"30 min preincubation, serum-free medium, with: PDGF 1 ng/mL, 10 min",IC50,~51.6 µM
O=C1CC[C@H](N2Cc3cc(-c4cnn5ccc(NC6CCCCC6)nc45)ccc3C2=O)C(=O)N1,MOLM-13,"cell growth, CellTiter luminescence",,72 h,IC50,> 0.1 µM
COC(=O)[C@@H]1[C@@H](OC)[C@H](OC(=O)c2cc(OC)c(OC)c(OC)c2)C[C@@H]2CN3CC[C@]4(O[C@@H]3C(=O)[C@@H]21)C(=O)Nc1cc(OC)c(-c2ccc(C(F)(F)F)cc2)cc14,NALM-6,"cell growth or viability, trypan blue",,72 h,IC50,0.61 µM
Cc1c(-c2cccc(C3=NCCN3)c2)oc(-c2cccc(C3=NCCN3)c2)c1C,RCC4,"cell growth or viability, SRB",,,IC50,4.9 µM
C1=[N+]2CCCC[N+]3=Cc4ccc5[n]4[Au-]23[n]2c1ccc2-c1nc2ccccc2nc1-5.F[P-](F)(F)(F)(F)F,ovarian cancer cell lines,,,NCI60 panel mean,IC50,19 µM
Cc1cc(-c2ccccc2)c2ccc3c(-c4ccccc4)cc(C)nc3c2n1.[Cl-].[Cl-].[Ru+2].c1ccc(-c2ccccn2)nc1.c1ccc(-c2ccccn2)nc1,rat bone marrow MSCs,cell viability,,dark,IC50,52 ± 13 µM
CC(C)c1cccc(C(C)C)c1-n1c(Cl)c(Cl)n(-c2c(C(C)C)cccc2C(C)C)c1=[Se].[Cl][Ag],H157 lung carcinoma cells,"cell viability, MTT",,72 h,IC50,1.7 ± 0.1 µM
Cc1cc(O)cc2c1O[C@](C)(CCC[C@H](C)CCC[C@H](C)CCCC(C)C)CC2,SK-MEL3,"cell growth or viability, MTT",,24 h,IC50,2.93 µM
Cc1cc(C)cc(/C=N/NC(=N)N/N=C/c2cc(C)cc(C)c2)c1,hTERT-HPNE,"cell growth, crystal violet",,72 h,IC50,141 ± 21.1 µM
CC(=O)c1cnc(N)nc1N1CC[C@H]1c1nn2ccc(Cl)c2c(=O)n1-c1ccccc1,basophils,"CD63 upregulation, inhibitor",human whole blood,"PI3K gamma response, with: fMLP",IC50,0.34 µM
C=CC(=O)Nc1ccc(-c2c(-c3ccc(Oc4ccccc4)cc3)c3c(N)ncnc3n2C)cc1,JMSU-1,"cell growth or viability, ATP luminescence",,96 h,IC50,0.082 µM
CC(C)=CCc1c2c(c(O)c3c(=O)c(-c4ccc(O)cc4O)coc13)C=CC(C)(C)O2,KKU100,"cell growth or viability, MTT",,24 h,IC50,23.8 µM
N=C(N/N=C/c1cc2ccccc2[nH]1)N/N=C/c1cc2ccccc2[nH]1,hTERT-HPNE,"cell growth, crystal violet",,72 h,IC50,8.8 ± 0.8 µM
Cc1ccc(CNS(=O)(=O)c2cccc(/C=C/C(=O)NO)c2)cc1,MOPC-315,cell growth,,24 h,IC50,0.167 ± 0.014 µM
COc1c(O)cc2oc3c(Br)c(O)c(CC=C(C)C)c(O)c3c(=O)c2c1CC=C(C)C,BEAS-2B,cell growth or viability,,,IC50,> 40 µM
Cc1cc(C=O)cc(C)c1Oc1cc(Nc2ccc(C#N)cn2)nc2ccncc12,S102,,,48 h,IC50,> 126 µM
O=C1CC[C@H](N2Cc3cc(-c4cnn5ccc(NCc6ccccc6)nc45)ccc3C2=O)C(=O)N1,MOLM-13,"cell growth, CellTiter luminescence",,72 h,IC50,> 0.1 µM
C=CC(=O)Nc1cc(Nc2nccc(-c3c(-c4ccc5c(c4)OCO5)n(C)c4ccccc34)n2)c(OC)cc1N(C)CCN(C)C,NCI-H1975,"cell growth or viability, MTT",,72 h,IC50,0.374 µM
C=C(C)C(=O)Nc1ccc(-c2c(-c3ccc(Oc4nccc(C)n4)cc3)c3c(N)ncnc3n2C)cc1,JMSU-1,"cell growth or viability, ATP luminescence",,96 h,IC50,0.77 µM
COC(=O)[C@H]1[C@H]2C[C@H]3O[C@@]4(CCN3C[C@H]2C[C@@H](OC(=O)c2cc(OC)c(OC)c(OC)c2)[C@@H]1OC)C(=O)Nc1cc(OC)c(-c2ccc(C(C)(C)C)cc2)cc14,NALM-6,"cell growth or viability, trypan blue",,72 h,IC50,7.33 µM
COCCOCCOCCOc1ccc(/C=C/c2c(I)c(C)c3n2[B-](F)(F)[N+]2=C(C)C(I)=C(C)C2=C3c2cc(OC)cc(OC)c2)cc1,HEp-2,"cell growth or viability, resazurin",,"24 h, dark",IC50,> 400 µM
C=CC(=O)Nc1cc(Nc2nccc(-c3c(-c4cccc(OC)c4)n(C)c4ccccc34)n2)c(OC)cc1N(C)CCN(C)C,NCI-H1975,"cell growth or viability, MTT",,72 h,IC50,0.0783 µM
COC(=O)CNc1cc(C[S+]([O-])c2ccc3cc(Br)ccc3c2)ccc1OC (centres unmarked),SCC-15,"cell growth or viability, MTS",,48 h,IC50,3.25 µM
CCN1CCC2(CC1)C/C(=N\N=C\c1ccc(O)cc1)c1ccccc1O2,"MCF7, HCT-116, PC-3, A549","cell growth, MTT",,range over cell lines,IC50,20.6 to 49.5 µM

# A few entries again:
Structure (SMILES),cell line,assay,test system,setting,endpoint,result
C=CC(=O)Nc1ccc(-c2c(-c3ccc(Oc4ccccc4)cc3)c3c(N)ncnc3n2C)cc1,JMSU-1,"cell growth or viability, ATP luminescence",,96 h,IC50,0.082 µM
CC(C)=CCc1c2c(c(O)c3c(=O)c(-c4ccc(O)cc4O)coc13)C=CC(C)(C)O2,KKU100,"cell growth or viability, MTT",,24 h,IC50,23.8 µM
N=C(N/N=C/c1cc2ccccc2[nH]1)N/N=C/c1cc2ccccc2[nH]1,hTERT-HPNE,"cell growth, crystal violet",,72 h,IC50,8.8 ± 0.8 µM
Cc1ccc(CNS(=O)(=O)c2cccc(/C=C/C(=O)NO)c2)cc1,MOPC-315,cell growth,,24 h,IC50,0.167 ± 0.014 µM
COc1c(O)cc2oc3c(Br)c(O)c(CC=C(C)C)c(O)c3c(=O)c2c1CC=C(C)C,BEAS-2B,cell growth or viability,,,IC50,> 40 µM
Cc1cc(C=O)cc(C)c1Oc1cc(Nc2ccc(C#N)cn2)nc2ccncc12,S102,,,48 h,IC50,> 126 µM
